Published values gathered from unrelated publications.
Parts stem from different laboratories: compare values within a part only.
UniProt P42336, sequence (whole entry, unmodified, looked up): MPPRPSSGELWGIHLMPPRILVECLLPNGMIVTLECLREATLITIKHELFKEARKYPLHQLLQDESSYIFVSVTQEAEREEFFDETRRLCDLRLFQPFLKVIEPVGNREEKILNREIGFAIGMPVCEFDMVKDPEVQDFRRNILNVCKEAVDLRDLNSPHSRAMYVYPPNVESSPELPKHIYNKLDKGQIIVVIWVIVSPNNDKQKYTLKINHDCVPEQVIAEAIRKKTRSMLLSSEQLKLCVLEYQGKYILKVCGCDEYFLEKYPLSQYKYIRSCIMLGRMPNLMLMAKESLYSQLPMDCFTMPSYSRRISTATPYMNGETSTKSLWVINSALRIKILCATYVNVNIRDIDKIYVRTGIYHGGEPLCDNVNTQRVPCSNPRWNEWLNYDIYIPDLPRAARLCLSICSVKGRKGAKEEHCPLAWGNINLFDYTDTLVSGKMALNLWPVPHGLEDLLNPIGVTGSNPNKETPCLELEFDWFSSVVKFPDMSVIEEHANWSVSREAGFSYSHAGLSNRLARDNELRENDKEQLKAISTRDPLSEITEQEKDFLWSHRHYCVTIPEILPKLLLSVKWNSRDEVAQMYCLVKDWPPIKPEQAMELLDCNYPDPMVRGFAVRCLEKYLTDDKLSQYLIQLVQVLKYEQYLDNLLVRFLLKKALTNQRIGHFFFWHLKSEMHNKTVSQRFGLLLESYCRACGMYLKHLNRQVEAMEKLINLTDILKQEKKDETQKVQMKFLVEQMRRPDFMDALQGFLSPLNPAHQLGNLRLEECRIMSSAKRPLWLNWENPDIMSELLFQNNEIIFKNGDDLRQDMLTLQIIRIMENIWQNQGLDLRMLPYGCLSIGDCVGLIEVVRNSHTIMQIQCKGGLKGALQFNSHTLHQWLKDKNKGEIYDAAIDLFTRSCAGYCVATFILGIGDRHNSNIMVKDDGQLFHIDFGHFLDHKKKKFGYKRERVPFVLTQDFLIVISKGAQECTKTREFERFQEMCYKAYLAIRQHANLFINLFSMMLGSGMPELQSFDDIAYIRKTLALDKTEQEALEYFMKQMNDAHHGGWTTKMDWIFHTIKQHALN
UniProt Q15759, sequence (whole entry, looked up): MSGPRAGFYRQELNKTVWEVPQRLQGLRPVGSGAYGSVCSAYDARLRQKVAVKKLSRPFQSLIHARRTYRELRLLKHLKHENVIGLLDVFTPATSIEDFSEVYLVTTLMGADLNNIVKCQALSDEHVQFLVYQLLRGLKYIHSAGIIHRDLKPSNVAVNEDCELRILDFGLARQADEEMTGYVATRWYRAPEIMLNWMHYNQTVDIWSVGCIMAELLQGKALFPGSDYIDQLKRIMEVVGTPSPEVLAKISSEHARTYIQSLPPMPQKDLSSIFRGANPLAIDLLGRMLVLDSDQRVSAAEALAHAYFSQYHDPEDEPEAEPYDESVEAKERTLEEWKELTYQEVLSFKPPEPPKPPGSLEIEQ
UniProt Q05513, sequence (whole entry, looked up): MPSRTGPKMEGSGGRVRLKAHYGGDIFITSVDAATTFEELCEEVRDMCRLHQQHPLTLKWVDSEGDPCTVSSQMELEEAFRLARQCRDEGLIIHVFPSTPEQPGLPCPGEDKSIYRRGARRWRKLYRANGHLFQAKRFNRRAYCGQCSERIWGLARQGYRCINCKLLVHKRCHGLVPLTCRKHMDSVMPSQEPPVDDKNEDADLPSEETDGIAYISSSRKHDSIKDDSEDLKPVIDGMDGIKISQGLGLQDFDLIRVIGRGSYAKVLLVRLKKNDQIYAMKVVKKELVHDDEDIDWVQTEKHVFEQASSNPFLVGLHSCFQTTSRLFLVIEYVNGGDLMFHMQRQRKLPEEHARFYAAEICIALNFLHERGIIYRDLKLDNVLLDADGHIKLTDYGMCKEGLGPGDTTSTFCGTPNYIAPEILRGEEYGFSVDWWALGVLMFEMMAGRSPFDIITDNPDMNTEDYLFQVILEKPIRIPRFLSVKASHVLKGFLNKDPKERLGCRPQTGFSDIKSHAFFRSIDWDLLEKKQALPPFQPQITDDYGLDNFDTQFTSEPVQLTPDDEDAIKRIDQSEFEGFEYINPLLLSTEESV
UniProt P08069, sequence (whole entry, looked up): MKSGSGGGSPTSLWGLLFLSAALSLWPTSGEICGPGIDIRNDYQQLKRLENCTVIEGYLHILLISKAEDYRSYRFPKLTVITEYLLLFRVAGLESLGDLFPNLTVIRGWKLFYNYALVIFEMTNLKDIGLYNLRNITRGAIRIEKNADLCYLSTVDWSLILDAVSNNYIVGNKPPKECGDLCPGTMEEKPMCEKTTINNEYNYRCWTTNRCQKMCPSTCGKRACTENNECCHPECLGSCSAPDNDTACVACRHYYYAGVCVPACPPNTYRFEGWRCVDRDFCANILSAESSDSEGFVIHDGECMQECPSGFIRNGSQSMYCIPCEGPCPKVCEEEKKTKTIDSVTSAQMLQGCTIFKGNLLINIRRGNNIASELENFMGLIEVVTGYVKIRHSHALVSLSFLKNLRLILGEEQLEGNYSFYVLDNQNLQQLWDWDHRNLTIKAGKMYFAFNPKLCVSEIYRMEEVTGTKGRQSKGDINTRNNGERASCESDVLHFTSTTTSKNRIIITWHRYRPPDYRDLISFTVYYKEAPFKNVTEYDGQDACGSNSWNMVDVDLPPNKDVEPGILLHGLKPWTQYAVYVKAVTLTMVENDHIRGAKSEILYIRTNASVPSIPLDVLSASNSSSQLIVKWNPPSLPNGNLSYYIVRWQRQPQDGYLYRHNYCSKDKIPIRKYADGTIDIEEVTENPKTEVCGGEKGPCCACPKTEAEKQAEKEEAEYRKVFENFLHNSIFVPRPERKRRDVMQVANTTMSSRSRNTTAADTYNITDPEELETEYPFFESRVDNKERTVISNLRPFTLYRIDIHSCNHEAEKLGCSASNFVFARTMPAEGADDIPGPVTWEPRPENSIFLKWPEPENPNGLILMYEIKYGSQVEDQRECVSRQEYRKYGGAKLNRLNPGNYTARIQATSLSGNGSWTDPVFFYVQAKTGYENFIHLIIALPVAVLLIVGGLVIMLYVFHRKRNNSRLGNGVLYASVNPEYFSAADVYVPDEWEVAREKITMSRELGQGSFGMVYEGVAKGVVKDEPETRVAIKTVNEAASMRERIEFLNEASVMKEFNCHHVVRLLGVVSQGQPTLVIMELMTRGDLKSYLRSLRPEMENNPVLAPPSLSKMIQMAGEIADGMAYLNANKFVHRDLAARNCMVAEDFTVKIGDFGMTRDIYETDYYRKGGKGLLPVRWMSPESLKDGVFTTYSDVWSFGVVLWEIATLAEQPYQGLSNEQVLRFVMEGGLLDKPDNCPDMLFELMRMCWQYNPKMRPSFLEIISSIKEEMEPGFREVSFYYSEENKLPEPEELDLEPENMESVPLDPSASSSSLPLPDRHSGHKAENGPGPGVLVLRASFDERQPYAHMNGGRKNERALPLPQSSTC
UniProt Q96SB4, sequence (whole entry, looked up): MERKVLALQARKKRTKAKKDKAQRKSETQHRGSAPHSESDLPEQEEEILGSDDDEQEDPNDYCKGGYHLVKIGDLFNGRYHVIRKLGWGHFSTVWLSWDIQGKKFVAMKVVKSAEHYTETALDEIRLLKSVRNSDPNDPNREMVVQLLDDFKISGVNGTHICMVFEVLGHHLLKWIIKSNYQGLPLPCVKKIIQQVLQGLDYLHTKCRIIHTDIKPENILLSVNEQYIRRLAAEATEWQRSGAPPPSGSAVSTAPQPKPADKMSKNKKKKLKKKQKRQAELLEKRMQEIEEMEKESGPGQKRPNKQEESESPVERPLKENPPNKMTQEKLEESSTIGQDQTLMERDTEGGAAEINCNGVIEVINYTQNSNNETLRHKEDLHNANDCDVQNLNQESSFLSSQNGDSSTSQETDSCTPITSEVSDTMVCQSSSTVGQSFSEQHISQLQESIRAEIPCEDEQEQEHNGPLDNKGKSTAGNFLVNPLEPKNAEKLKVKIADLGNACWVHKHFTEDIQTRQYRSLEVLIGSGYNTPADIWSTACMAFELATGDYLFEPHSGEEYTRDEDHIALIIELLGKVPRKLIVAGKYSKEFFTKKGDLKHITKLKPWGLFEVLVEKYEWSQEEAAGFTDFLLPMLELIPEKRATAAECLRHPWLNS
UniProt Q9UQB9, sequence (whole entry, looked up): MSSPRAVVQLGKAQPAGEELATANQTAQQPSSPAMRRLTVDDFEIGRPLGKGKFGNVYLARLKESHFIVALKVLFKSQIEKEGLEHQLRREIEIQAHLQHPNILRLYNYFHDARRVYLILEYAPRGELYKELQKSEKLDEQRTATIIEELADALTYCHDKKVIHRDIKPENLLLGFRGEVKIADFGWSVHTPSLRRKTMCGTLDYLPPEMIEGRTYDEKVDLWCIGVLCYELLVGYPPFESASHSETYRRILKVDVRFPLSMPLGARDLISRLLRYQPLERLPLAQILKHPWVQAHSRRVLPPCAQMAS
UniProt P49760, sequence (whole entry, looked up): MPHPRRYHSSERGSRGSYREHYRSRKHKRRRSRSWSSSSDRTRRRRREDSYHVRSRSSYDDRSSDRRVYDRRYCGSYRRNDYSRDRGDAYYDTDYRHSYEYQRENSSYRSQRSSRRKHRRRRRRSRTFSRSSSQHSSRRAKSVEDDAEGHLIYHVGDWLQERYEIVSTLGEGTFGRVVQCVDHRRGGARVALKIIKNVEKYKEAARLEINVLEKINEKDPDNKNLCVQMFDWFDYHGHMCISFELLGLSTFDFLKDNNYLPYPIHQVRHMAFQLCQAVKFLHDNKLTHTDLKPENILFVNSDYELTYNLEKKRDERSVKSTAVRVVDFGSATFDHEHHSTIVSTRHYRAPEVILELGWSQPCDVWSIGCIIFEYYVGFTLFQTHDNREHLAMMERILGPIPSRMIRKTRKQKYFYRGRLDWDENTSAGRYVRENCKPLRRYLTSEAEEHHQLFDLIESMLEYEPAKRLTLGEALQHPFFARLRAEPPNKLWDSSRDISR

Sample 1
SMILES: CC#CC(=O)Nc1cc2c(Nc3ccc(F)c(Cl)c3)ncnc2cn1
Read-out: enzyme activity
Action: inhibitor
Concentration: 0.5 µM
Reference: control
Quantity: remaining activity
MAP3K20 (Homo sapiens, UniProt Q9NYL2): 85.8%
CLK1 (Homo sapiens, UniProt P49759): 82.5%
SRPK1 (Homo sapiens, UniProt Q96SB4): 94.8%
FLT1 (Homo sapiens, UniProt P17948): 100%
RPS6KA3 (Homo sapiens, UniProt P51812): 97.5%
CLK2 (Homo sapiens, UniProt P49760): 100%
TYRO3 (Homo sapiens, UniProt Q06418): 100%
PRKCQ (Homo sapiens, UniProt Q04759): 89.3%
PRKCZ (Homo sapiens, UniProt Q05513): 114%
JAK1 (Homo sapiens, UniProt P23458): 104%
CAMK1 (Homo sapiens, UniProt Q14012): 97.9%
MUSK (Homo sapiens, UniProt O15146): 79.6%
CSNK1D (Homo sapiens, UniProt P48730): 99.3%
CSNK1E (Homo sapiens, UniProt P49674): 93.6%
SGK2 (Homo sapiens, UniProt Q9HBY8): 98.3%
PAK1 (Homo sapiens, UniProt Q13153): 94.5%
TEC (Homo sapiens, UniProt P42680): 52.1%
Cyclin-dependent kinase 2, with cyclin E (CDK2, Homo sapiens, UniProt P24941): 98.1%
SIK2 (Homo sapiens, UniProt Q9H0K1): 81.3%
EPHA2 (Homo sapiens, UniProt P29317): 103%
PAK6 (Homo sapiens, UniProt Q9NQU5): 96.9%
CAMKK1 (Homo sapiens, UniProt Q8N5S9): 124%
IGF1R (Homo sapiens, UniProt P08069): 100%

Sample 2
SMILES: CN(c1ccnc(CNc2nc(Nc3ccc4c(c3)CC(=O)N4)ncc2C(F)(F)F)n1)S(C)(=O)=O
Read-out: cell-free assay
Method: competition with immobilised ligand
Concentration: 1 µM
Quantity: remaining binding
BMPR2 (Homo sapiens, UniProt Q13873): 60%
Aurora kinase C (AURKC, Homo sapiens, UniProt Q9UQB9): 14%
SRC (Homo sapiens, UniProt P12931): 60%
STK10 (Homo sapiens, UniProt O94804): 100%
NEK5 (Homo sapiens, UniProt Q6P3R8): 63%
MAP3K1 (Homo sapiens, UniProt Q13233): 49%
MAPK11 (Homo sapiens, UniProt Q15759): 85%
GSK3B (Homo sapiens, UniProt P49841): 57%
PIK3CA (Homo sapiens, UniProt P42336, E542K): 100%
TTK (Homo sapiens, UniProt P33981): 13%
PIK3CA (Homo sapiens, UniProt P42336, Q546K): 93%
HASPIN (Homo sapiens, UniProt Q8TF76): 76%
CHUK (Homo sapiens, UniProt O15111): 57%

Sample 3
Cell line: mouse MPNST tumor cells
Method: high-content nuclear imaging
Refers to: cell number
Concentration: 10 µM
Time: 12 h
Notes: mean of 2 replicates
Reference: plate mean
Reading: higher = more cells
Quantity: nuclei count
OC(CCN1CCCCC1)(c1ccccc1)c1ccccc1: 1.84 z-score
COCCCC/C(=N\OCCN)c1ccc(C(F)(F)F)cc1: 2.16 z-score
CCn1c(=O)[nH]c2cc(Cl)c(Cl)cc21: 0.305 z-score
CC(=O)OCC(=O)[C@@]1(O)CC[C@H]2[C@@H]3CCC4=CC(=O)C=C[C@]4(C)[C@@]3(F)[C@@H](O)C[C@@]21C: 4.57 z-score

Sample 4
Cell line: HaCaT
Concentration: 100 µM
Time: 18 h
Quantity: viability
CS(=O)(=O)c1ccc([C@@H](O)[C@@H](CO)NC(=O)C(Cl)Cl)cc1: 137%
CC[C@H](Nc1ncnc2[nH]cnc12)c1nc2cccc(F)c2c(=O)n1-c1ccccc1: 85.5%
CN(C/C=C/c1ccccc1)Cc1cccc2ccccc12: 30.4%
OC[C@@H](O)[C@H](O)[C@@H](O)CO: 110%
CC1(C)O[C@@H]2C[C@H]3[C@@H]4CCC5=CC(=O)CC[C@]5(C)[C@@]4(F)[C@@H](O)C[C@]3(C)[C@]2(C(=O)CCl)O1: 91.1%
O=C(O[C@H]1CN2CCC1CC2)N1CCc2ccccc2[C@@H]1c1ccccc1: 17.9%
